Assay results collected from several papers.
Protocols differ between the studies behind these lines.
Organism: Klebsiella pneumoniae

With `CCCCCCCCn1cc[n+](CCCCCCCCCCOc2cc(OCCCCCCCCCC[n+]3ccn(CCCCCCCC)c3)cc(OCCCCCCCCCC[n+]3ccn(CCCCCCCC)c3)c2)c1.[Br-].[Br-].[Br-]` the MIC was 125 µM (ATCC 4352).
The MIC of `CC(C)C[C@@H]1NC(=O)[C@@H](CC(C)C)NC(=O)[C@H](CCN)NC(=O)[C@@H](NC(=O)[C@H](CCN)NC(=O)[C@@H](NC(=O)CCCCN=[N+]=[N-])[C@@H](C)O)CCNC(=O)[C@H]([C@@H](C)O)NC(=O)[C@H](CCN)NC(=O)[C@H](CCN)NC1=O` is reported as 8 µg/mL (broth microdilution; ATCC 27736, cation-adjusted Mueller-Hinton broth; 18 to 20 h, 37 °C, 0.002% polysorbate 80).
With `CCOc1c(NC(=O)c2ccc(NC(=O)c3ccc(NC(=O)[C@H](Cc4c[nH]nn4)NC(=O)c4ccc(NC(=O)/C(C)=C/c5ccc(O)cc5)cc4)cc3)c(OCC)c2O)ccc(C(=O)O)c1O` the MIC was 16 µg/mL (broth microdilution; ciprofloxacin-sensitive).
For `CN[C@H](CC(C)C)C(=O)N[C@H]1C(=O)N[C@@H](CC(N)=O)C(=O)N[C@H]2C(=O)N[C@H]3C(=O)N[C@H](C(=O)N[C@H](C(=O)NCC(N)=O)c4cc(O)cc(O)c4-c4cc3ccc4O)[C@H](O)c3ccc(c(Cl)c3)Oc3cc2cc(c3O[C@@H]2O[C@H](CO)[C@@H](O)[C@H](O)[C@H]2O[C@H]2C[C@](C)(NCc3ccc(OCc4cn(CC(=O)N[C@H](C(=O)N[C@@H](CCN)C(=O)N[C@H]5CCNC(=O)[C@H]([C@@H](C)O)NC(=O)[C@H](CCN)NC(=O)[C@H](CCN)NC(=O)[C@H](CC(C)C)NC(=O)[C@@H](CC(C)C)NC(=O)[C@H](CCN)NC5=O)[C@@H](C)O)nn4)c(OC)c3)[C@H](O)[C@H](C)O2)Oc2ccc(cc2Cl)[C@H]1O`, the MIC was 16 µg/mL (broth microdilution; ATCC 27736, cation-adjusted Mueller-Hinton broth; 18 to 20 h, 37 °C, 0.002% polysorbate 80).
For `CC1(C)[C@H](NC(=O)/C(=N\OCCN)c2nsc(N)n2)C(=O)N1OS(=O)(=O)O`, the MIC was 64 µg/mL (agar dilution; 16-14, ESBL-producing).
The MIC of `CC[C@H]1OC(=O)[C@H](C)[C@@H](OC(=O)Cc2ccc(Cl)cc2)[C@H](C)[C@@H](O[C@@H]2O[C@H](C)C[C@H](N(C)C)[C@H]2O)[C@](C)(OC)C[C@@H](C)C(=O)[C@H](C)[C@@H](O)[C@]1(C)O` is reported as greater than 32 µg/mL (microbial growth; ATCC700603).
With `CC(C)C[C@@H]1NC(=O)[C@@H](CC(C)C)NC(=O)[C@H](CCN)NC(=O)[C@@H](NC(=O)[C@H](CCN)NC(=O)[C@@H](NC(=O)CCOCCOCCOCCN=[N+]=[N-])[C@@H](C)O)CCNC(=O)[C@H]([C@@H](C)O)NC(=O)[C@H](CCN)NC(=O)[C@H](CCN)NC1=O` the MIC was 32 µg/mL (broth microdilution; ATCC 13883, cation-adjusted Mueller-Hinton broth; 18 to 20 h, 37 °C, 0.002% polysorbate 80).
`C#CCO/N=C(\C(=O)N[C@@H]1C(=O)N(S(=O)(=O)O)[C@H]1C)c1csc(N)n1` gave an MIC of 32 µg/mL (agar dilution; 16-14 ESBL).
The MIC of `CN[C@H](CC(C)C)C(=O)N[C@H]1C(=O)N[C@@H](CC(N)=O)C(=O)N[C@H]2C(=O)N[C@H]3C(=O)N[C@H](C(=O)N[C@H](C(=O)N[C@@H](CCCNC(=N)N)C(N)=O)c4cc(O)cc(O)c4-c4cc3ccc4O)[C@H](O)c3ccc(c(Cl)c3)Oc3cc2cc(c3O[C@@H]2O[C@H](CO)[C@@H](O)[C@H](O)[C@H]2O[C@H]2C[C@](C)(NCc3ccc(OCc4cn(CC(=O)N[C@H](C(=O)N[C@@H](CCN)C(=O)N[C@H]5CCNC(=O)[C@H]([C@@H](C)O)NC(=O)[C@H](CCN)NC(=O)[C@H](CCN)NC(=O)[C@H](CC(C)C)NC(=O)[C@@H](CC(C)C)NC(=O)[C@H](CCN)NC5=O)[C@@H](C)O)nn4)c(OC)c3)[C@H](O)[C@H](C)O2)Oc2ccc(cc2Cl)[C@H]1O` is reported as 32 µg/mL (broth microdilution; ATCC 13883, cation-adjusted Mueller-Hinton broth; 18 to 20 h, 37 °C, 0.002% polysorbate 80).
For `CCCCCCCCCCCC[N+](C)(C)CCCCOc1cc(OCCCC[N+](C)(C)CCCCCCCCCCCC)cc(OCCCC[N+](C)(C)CCCCCCCCCCCC)c1.[Br-].[Br-].[Br-]`, the MIC was 4 µM (ATCC 4352).
`CC1(C)[C@H](NC(=O)/C(=N\OCC(=O)N2CCC[C@@H]2C(=O)O)c2nsc(N)n2)C(=O)N1OS(=O)(=O)O` has an MIC of greater than 64 µg/mL (agar dilution; ATCC 700603, ESBL-producing).
For `CCCCCCCCCC[N+](C)(C)CCCCCCOc1cc(OCCCCCC[N+](C)(C)CCCCCCCCCC)cc(OCCCCCC[N+](C)(C)CCCCCCCCCC)c1.[Br-].[Br-].[Br-]`, the MIC was 1 µM (ATCC 4352).
With `c1ccc(CN2CCOCCOCCN(CCCCCCCCCCN3CCOCCOCCN(CCCCCCCCCCN4CCOCCOCCN(Cc5ccccc5)CCOCCOCC4)CCOCCOCC3)CCOCCOCC2)cc1` the MIC was 56 µM (ATCC BAA-2146).
`Cc1c(CN(C)C(=O)/C=C/c2cnc3c(c2)CC(N)C(=O)N3)oc2ccccc12` (stereo not drawn) has an MIC of 32 µg/mL (broth microdilution; AR-0555).
`CC1(C)[C@H](NC(=O)/C(=N\OCc2c(Cl)cccc2Cl)c2nsc(N)n2)C(=O)N1OS(=O)(=O)O` has an MIC of 8 µg/mL (agar dilution; 16-14, ESBL-producing).
`CC[C@H](C)[C@H](NC(=O)[C@H](CCC(N)=O)NC(=O)[C@H](Cc1ccccc1)NC(=O)[C@H](CC(N)=O)NC(=O)[C@H](CCCCN)NC(=O)[C@H](CC(C)C)NC(=O)[C@H](CCCNC(=N)N)NC(=O)[C@H](CCCCN)NC(=O)[C@H](CCCCN)NC(=O)[C@@H](NC(=O)[C@H](CO)NC(=O)[C@H](CCCCN)NC(=O)CNC(=O)[C@H](CC(C)C)NC(=O)[C@H](CCCCN)NC(=O)[C@H](CCCCN)NC(=O)[C@H](CC(C)C)NC(=O)[C@H](CCCCN)NC(=O)[C@H](CCCCN)NC(=O)[C@H](CCCNC(=N)N)NC(=O)[C@H](CC(C)C)NC(=O)CNC(=O)[C@@H](N)CCCNC(=N)N)[C@@H](C)CC)C(=O)NCC(=O)N[C@@H](Cc1ccccc1)C(=O)N[C@@H](CO)C(=O)N[C@H](C(=O)N1CCC[C@H]1C(=O)N[C@@H](Cc1ccccc1)C(=O)N[C@@H](C)C(=O)NCC(=O)O)C(C)C` gave an MIC of 2.36 µM (broth microdilution; ATCC 43816).
The MIC of `CCCCCCCCCCCCCCCCCCn1cc(CN(CCC(=O)NCCN(CCC(=O)NCCN(CCC(=O)NCCN(C)C)CCC(=O)NCCN(C)C)CCC(=O)NCCN(CCC(=O)NCCN(C)C)CCC(=O)NCCN(C)C)CCC(=O)NCCN(CCC(=O)NCCN(CCC(=O)NCCN(C)C)CCC(=O)NCCN(C)C)CCC(=O)NCCN(CCC(=O)NCCN(C)C)CCC(=O)NCCN(C)C)nn1` is reported as 48 µg/mL (microbial growth, broth dilution; ATCC13883; 18 h).
`CCCCCCCCn1cc[n+](CCCCCCCCOc2cc(OCCCCCCCC[n+]3ccn(CCCCCCCC)c3)cc(OCCCCCCCC[n+]3ccn(CCCCCCCC)c3)c2)c1.[Br-].[Br-].[Br-]` gave an MIC of 4 µM (ATCC 4352).
For `C#CCO/N=C(\C(=O)N[C@@H]1C(=O)N(OS(=O)(=O)O)C1(C)C)c1nsc(N)n1`, the MIC was 32 µg/mL (agar dilution; 16-14, ESBL-producing).
The MIC of `CC[C@H]1OC(=O)[C@H](C)[C@@H](O[C@H]2C[C@@](C)(OC)[C@@H](O)[C@H](C)O2)[C@H](C)[C@@H](O[C@@H]2O[C@H](C)C[C@H](N(C)C)[C@H]2O)[C@](C)(OC)C[C@@H](C)C(=O)[C@H](C)[C@@H](O)[C@]1(C)O` is reported as greater than 32 µg/mL (microbial growth; ATCC700603).
With `C=CCO/N=C(\C(=O)N[C@@H]1C(=O)N(OS(=O)(=O)O)C1(C)C)c1csc(N)n1` the MIC was 0.5 µg/mL (agar dilution; 16-14, ESBL-producing).
`CCCCCCCCn1cc[n+](CCCCOc2cc(OCCCC[n+]3ccn(CCCCCCCC)c3)cc(OCCCC[n+]3ccn(CCCCCCCC)c3)c2)c1.[Br-].[Br-].[Br-]` gave an MIC of 0.5 µM (ATCC 4352).
With `C=CCO/N=C(\C(=O)N[C@@H]1C(=O)N(OS(=O)(=O)O)C1(C)C)c1nsc(N)n1` the MIC was 2 µg/mL (agar dilution; 16-14, ESBL-producing).
For `CC[C@H]1OC(=O)[C@H](C)[C@@H](OC(=O)Cc2cccc(Cl)c2)[C@H](C)[C@@H](O[C@@H]2O[C@H](C)C[C@H](N(C)C)[C@H]2O)[C@](C)(OC)C[C@@H](C)C(=O)[C@H](C)[C@@H](O)[C@]1(C)O`, the MIC was greater than 32 µg/mL (microbial growth; ATCC700603).
`C=CCO/N=C(\C(=O)N[C@@H]1C(=O)N(S(=O)(=O)O)[C@H]1C)c1csc(N)n1` gave an MIC of 8 µg/mL (agar dilution; 16-14 ESBL).
The MIC of `CCCCCCn1cc[n+](CCCCOc2cc(OCCCC[n+]3ccn(CCCCCC)c3)cc(OCCCC[n+]3ccn(CCCCCC)c3)c2)c1.[Br-].[Br-].[Br-]` is reported as 63 µM (ATCC 4352).
For `CCCCCCCC(=O)N[C@@H](CCN)C(=O)N[C@H](C(=O)N[C@@H](CCN)C(=O)N[C@H]1CCNC(=O)[C@H]([C@@H](C)O)NC(=O)[C@H](CCN)NC(=O)[C@H](CCN)NC(=O)[C@H](CC(C)C)NC(=O)[C@@H](Cc2ccccc2)NC(=O)[C@H](CCN)NC1=O)[C@@H](C)O`, the MIC was 0.125 to 0.25 µg/mL (broth microdilution; ATCC 19606).
